Earlier results that unrelated publications cite.
Lines come from different studies, so protocols differ. ± gives the spread as reported. Values after ≈ are worked out from the molar mass of the structure shown.

By UniProt entry, the sequences of proteins in these tests, tags left out. Residues count along the entry.
UniProt O95696, 562-666 limits assumed: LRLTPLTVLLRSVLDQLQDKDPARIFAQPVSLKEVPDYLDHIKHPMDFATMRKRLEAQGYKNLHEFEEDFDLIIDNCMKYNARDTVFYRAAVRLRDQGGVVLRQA

| Structure (SMILES) | tested on | assay | system | conditions | quantity | result |
| --- | --- | --- | --- | --- | --- | --- |
| CNC(=O)[C@@]12C[C@@H]1[C@@H](n1cnc3c(NCCc4ccc(OC)c(OC)c4)nc(C#Cc4ccc(Cl)s4)nc31)[C@H](O)[C@@H]2O |  | pION |  | pH 7.4 | aqueous solubility | 3.84 ± 0.52 µg/mL (≈ 6.3 µM) |
| Cc1ccc(F)c(C(=O)n2nc(Nc3ccc(S(N)(=O)=O)cc3)nc2N)c1F | CDK4/6 | kinase activity, inhibitor |  |  | IC50 | 2 nM |
| Cc1cc(C)cc(Nc2nccc(-c3c(-c4ccc(F)cc4)ncn3C3CCNCC3)n2)c1 | BRD1 (Homo sapiens, UniProt O95696) |  |  | concentration not given | inhibition | > 35% |
| C[C@@H]1NC(=O)[C@@H]2CSSC[C@H](NC(=O)[C@H](CC(=O)O)NC(=O)[C@H](CC(=O)O)NC(=O)CNC(=O)[C@H](CC(=O)O)NC(=O)[C@H](Cc3ccc(O)cc3)NC1=O)C(=O)N[C@@H](CCCCN)C(=O)N[C@@H](CO)C(=O)N[C@@H](C)C(=O)N1CCC[C@H]1C(=O)N1CCC[C@H]1C(=O)N[C@@H](CO)C(=O)N2 | CD2-CD58 interaction | cell adhesion, inhibitor |  |  | IC50 | 37 nM |
| O=C1Cc2c([nH]c3ccc(Br)cc23)-c2ccccc2N1CC1CCCCC1 | CDK4/6 |  |  |  | IC50 | 0.6 nM |
| CN(C)Cc1cn(Cc2ccc(C(=O)NO)cc2)c2ccccc12 | human HDAC10 | inhibitor |  |  | IC50 | 5 nM |
| CCN1CCN(Cc2cnc(Nc3cc(-c4cc(F)c5nc(C)n(C(C)C)c5c4)ccn3)cn2)CC1 | CDK4/6 | kinase activity, inhibitor |  |  | IC50 | 11200 nM |
| N#Cc1ccc(S(=O)(=O)NC[C@H]2OC(O)[C@H](NC(=O)c3cccc(-c4ccccc4)c3)[C@@H](O)[C@@H]2O)cc1 (stereo partly shown) | hexokinase-1, human | enzyme activity, inhibitor |  |  | IC50 | 7.9 nM |
| CCC[C@@H]([C@@H](CC(C)C)C(=O)N[C@@H](CCCCNC(=O)OCc1ccccc1)C(=O)Nc1nccs1)N(O)C=O | recombinant ADAM17 | enzyme activity, inhibitor |  |  | IC50 | 8 nM |
| COc1cc(Nc2ccnc3cc(F)cc(F)c23)cc(OC)c1OC | GAK |  |  |  | IC50 | 140 nM |
| C/C=C/Cn1c(Cc2cc(OC)c(OC)c(OC)c2)nc2c(N)ncnc21 | Grp94 | binding, fluorescence polarization competition |  |  | IC50 | 111000 ± 9700 nM |
| CCC(C)NC(=O)CSc1nnc(Nc2ccc(C(C)C)cc2)s1 (stereo not shown) |  |  | FaSSIF |  | solubility | 108 µM (≈ 39.4 µg/mL) |
| O=S(=O)(NC1CCN(c2ncnc3c2nc(-c2ccccc2Cl)n3-c2ccc(Cl)cc2)CC1)c1ccccc1 | MDCK-MDR1 |  |  | apical to basal transported | permeability | 1% |
